Results pooled from the literature.
Each line is one published result; not all experiments were run side by side.
Sample: plasma

SMILES | test system | conditions | scale | measurement | value
COc1cc2c(c(OC)c1OC)-c1ccc(OC)c(=O)cc1[C@@H](NC(C)=O)CC2 | human, male | oral, 10 mg, with: allopurinol 300 mg | baseline: combination over alone | Cmax ratio | 110%
O[C@H]1CCCN[C@@H]1CCCn1cnc2c(Cl)c(Cl)ccc21 | healthy human volunteers | oral, 100 mg, day 1, multiple ascending dose | – | Cmax | 95.7 ng/mL
COC(=O)N[C@H](C(=O)N1CCC[C@H]1C(=O)Nc1ccc([C@@H]2CC[C@@H](c3ccc(NC(=O)[C@@H]4CCCN4C(=O)[C@@H](NC(=O)OC)C(C)C)cc3)N2c2ccc(C(C)(C)C)cc2)cc1)C(C)C | healthy human volunteers | oral, dose not given, alone, digoxin interaction study | – | Cmax | 148 ng/mL
N#Cc1ccc(N2N=C3c4ccc(C(=O)N5CCC(O)CC5)nc4CC[C@@H]3[C@@H]2C2CCCC2)cc1Cl | human | with: itraconazole | baseline: with itraconazole over alone | Cmax ratio | ~1.1 fold
COc1ccc(C[C@@H]2NC(=O)[C@H]([C@@H](C)O)NC(=O)[C@@H]3[C@@H]4CCN3C(=O)[C@@H]3Cc5cn(c6ccc(F)cc56)CCCCCCN(Cc5ccc(cc5)CCNC(=O)[C@]5(C)CCCN5C2=O)C(=O)CCC(=O)N[C@@H](C)C(=O)N[C@H](CNC(=O)CCCCC[N+](C)(C)C)C(=O)N[C@@H](Cc2cccc(c2)CNC(=O)CO4)C(=O)N3)cc1 | healthy humans | oral, 10 mg once daily, day 1, dosed 30 min post-meal, with: sodium caprate 360 mg | – | Cmax | 3.29 nM
Cc1cnc(C(=O)N[C@H]2CCCCC/C=C\[C@@H]3C[C@@]3(C(=O)NS(=O)(=O)C3CC3)NC(=O)[C@@H]3C[C@@H](Oc4nc5ccccc5c5ccccc45)CN3C2=O)cn1 | healthy human volunteers | oral, dose not given, with: rosuvastatin plus 2D regimen | – | Cmax | 413 ng/mL
[O-][S+]1CCc2nc(N3CCC(c4ncc(Cl)cn4)CC3)nc(NC3(CO)CCC3)c21 (stereo not drawn) | human, idiopathic pulmonary fibrosis | oral, 18 mg twice daily, day 14, geometric mean | – | Cmax at steady state | 460 nM
CCCCCOc1ccc(-c2ccc(-c3ccc(C(=O)N[C@H]4C[C@@H](O)[C@@H](O)NC(=O)[C@@H]5[C@@H](O)[C@@H](C)CN5C(=O)[C@H]([C@@H](C)O)NC(=O)[C@H]([C@H](O)[C@@H](O)c5ccc(O)cc5)NC(=O)[C@@H]5C[C@@H](O)CN5C(=O)[C@H]([C@@H](C)O)NC4=O)cc3)cc2)cc1 | human infants | intravenous, 1.5 mg/kg/day after 3 mg/kg loading | – | Cmax steady state | 5200 ng/mL
CC[C@@]1(O)C(=O)OCc2c1cc1n(c2=O)Cc2cc3c(CN(C)C)c(O)ccc3nc2-1 | human patients | oral, 2.5 mg daily for 5 days, MTD arm, daily dosing, with: pazopanib | baseline: with pazopanib over alone | Cmax ratio | 1.86
